Measurements pooled from the literature.
Protocols differ between the studies behind these lines. Several values in a cell are separate wells, animals, samples, runs or records. ± gives the spread as reported. In brackets after ≈: the same amount, converted by molar mass.

| SMILES | organism | test | test system | conditions | how to read | quantity | result |
| --- | --- | --- | --- | --- | --- | --- | --- |
| COC(=O)c1ccc2c(ccc3oc([N+](=O)[O-])cc32)c1 | Mycobacterium avium subsp. hominissuis | REMA | ATCC 25291 |  |  | MIC90 | 2 µg/mL (≈ 7.37 µM) |
| C=C(CN(C(=O)c1c(C(F)F)nn(C)c1F)C1CC1)c1ccc(Cl)cc1Cl | Phytophthora capsici |  |  | 1.56 mg/L |  | mean colony diameter | 16.8 mm |
| CNC(=O)c1cccc(-c2ccc3c(N4CCOC[C@@H]4C)nc(N4CCOC[C@@H]4C)nc3n2)c1 | Aspergillus fumigatus |  |  | 20 µM | relative to: untreated | metabolic activity | ≥ 80% |
| CC[C@H](C=C[C@@H](C)[C@H]1CC[C@H]2[C@@H]3CCC4=CC(=O)CC[C@]4(C)[C@H]3CC[C@]12C)C(C)C | Leishmania mexicana | propidium iodide flow cytometry | promastigotes | concentration not given, 48 h |  | antileishmanial activity | inactive |
| CN(C)C(=O)Cn1cc(-c2ccc(-c3cncc4ccccc34)cc2)cn1 | murine hepatitis virus | viral replication, nanoluciferase reporter | DBT | 1 µM, 10 h | relative to: DMSO vehicle | inhibition | 41% |
| Nc1ncnc2c([C@@H]3N[C@H](CO)[C@@H](O)[C@H]3O)c[nH]c12 | Measles morbillivirus | viral replication | Vero 76, Chicago | 94.7 µM |  | inhibition | 74.7% |
| CN1CCN(C(=O)C(C)(C)c2ccc(C(=O)Nc3cn4cc(-c5cc(C(C)(C)C)cc(C(C)(C)C)c5)ccc4n3)cc2)CC1 | murine hepatitis virus | viral replication, nanoluciferase reporter | DBT | 1 µM, 10 h | relative to: DMSO vehicle | inhibition | -1% |
| Nc1ccn([C@@H]2O[C@H](CO)[C@@H](O)C2(F)F)c(=O)n1 | human alphaherpesvirus 1 |  | primary human keratinocytes, K26 GFP |  | relative to: CC50 over IC50 | selectivity index | < 0.62 |
| COC(=O)C1CCN(C(=O)c2ccc(NCc3cnc4nc(N)nc(N)c4n3)cc2)CC1 | Leishmania infantum | amastigote growth | THP-1-derived macrophages | 10 µM, 72 h |  | inhibition | 14 ± 1% |
| N=C(N)NCCC[C@H](NC(=O)[C@H](Cc1c[nH]c2ccccc12)NC(=O)[C@H](CCCNC(=N)N)NC(=O)[C@H](Cc1c[nH]c2ccccc12)NC(=O)[C@H](Cc1c[nH]c2ccccc12)NC(=O)[C@H](Cc1c[nH]c2ccccc12)NC(=O)[C@H](CCCNC(=N)N)NC(=O)[C@H](Cc1c[nH]c2ccccc12)NC(=O)[C@@H](N)CCCNC(=N)N)C(=O)N[C@@H](Cc1ccccc1)C(N)=O | Candida albicans | broth microdilution | 56452, RPMI 1640-MOPS | 48 h, 30 °C |  | MIC | 16 µM (≈ 27.5 µg/mL) |
| CCCC(CCC)C(=O)Nc1ccccc1O | Artemia franciscana | LC-MS/MS metabolomics, refers to: 1-aminocyclopropanecarboxylic acid | larvae | concentration not given, 48 h | relative to: vehicle | log2 fold change | 0.011 |
| CS(=O)(=O)CCCn1c(Cn2c(=O)n(CC(F)(F)F)c3ccncc32)cc2cc(Cl)ccc21 | respiratory syncytial virus | RT-qPCR | hospitalized infants 1-24 months, nasal swab | oral, 8 mg/kg daily, day 3, cohort 6-24 months | relative to: placebo | LS mean difference vs placebo | -1.23 log10 copies/mL |
| COc1cc2ccc3oc([N+](=O)[O-])cc3c2cc1OC | Mycobacterium avium subsp. hominissuis | REMA | ATCC 25291 |  |  | MIC90 | 0.25 µg/mL (≈ 0.915 µM) |
| Nc1ncnc2c1ncn2[C@@H]1O[C@@H]2COP(=O)(O)O[C@H]3[C@@H](O)[C@H](n4cnc5c(=O)[nH]cnc54)O[C@@H]3COP(=O)(O)O[C@H]2[C@H]1O | West Nile virus | RNA sequencing Reactome analysis, refers to: Immune System (R-HSA-168256) | HFF-1 | concentration not given, upregulated pathways, added: West Nile virus infection | relative to: WNV-infected without compound | fold enrichment | 2.49 |
| CC[C@H](C)[C@H](NC(=O)[C@H](C)NC(=O)[C@H](CCCCN)NC(=O)[C@H](CC(C)C)NC(=O)[C@H](C)NC(=O)[C@@H](NC(=O)[C@H](Cc1c[nH]cn1)NC(=O)[C@H](CC(C)C)NC(=O)[C@@H](NC(=O)[C@@H](NC(=O)[C@H](CCCCN)NC(=O)[C@H](C)NC(=O)[C@H](C)NC(=O)[C@H](CO)NC(=O)[C@H](CCCCN)NC(=O)[C@H](Cc1ccccc1)NC(=O)[C@@H](NC(=O)[C@H](CCCCN)NC(=O)[C@H](CC(C)C)NC(=O)[C@H](Cc1ccccc1)NC(=O)[C@H](CO)NC(=O)[C@H](CCCCN)NC(=O)[C@H](Cc1c[nH]c2ccccc12)NC(=O)[C@H](CCCCN)NC(C)=O)[C@@H](C)O)[C@@H](C)O)C(C)C)[C@@H](C)O)C(=O)N[C@@H](CO)C(=O)N[C@@H](CO)C(N)=O | Klebsiella pneumoniae |  | ATCC 1706 |  |  | MIC90 | 2 µg/mL (≈ 0.682 µM) |
| CN(C)c1ncnc(-c2ccc3nc(Nc4cc(CN5CCN(C(=O)CC(F)(F)F)CC5)ccn4)[nH]c3c2)c1Cl | murine hepatitis virus | viral replication, nanoluciferase reporter | DBT | 1 µM, 10 h | relative to: DMSO vehicle | inhibition | 8% |
| OC(Cn1cncn1)(Cn1cncn1)c1ccc(F)cc1F | Candida parapsilosis |  | CGMCC 2.399 | 48 h, 30 °C |  | MFC | 8 µM |
| Cc1c[nH]c(-c2cnc(NCCNc3ccc(C#N)cn3)nc2-c2ccc(Cl)cc2Cl)n1 | murine hepatitis virus | viral replication, nanoluciferase reporter | DBT | 1 µM, 10 h | relative to: DMSO vehicle | inhibition | 12% |
| N=C(N)NCCC[C@H](NC(=O)CN)C(=O)N[C@@H](Cc1c[nH]c2ccccc12)C(=O)N[C@@H](CCCNC(=N)N)C(=O)N[C@@H](Cc1c[nH]c2ccccc12)C(=O)N[C@@H](Cc1c[nH]c2ccccc12)C(=O)N[C@@H](Cc1c[nH]c2ccccc12)C(=O)N[C@@H](CCCNC(=N)N)C(=O)N[C@@H](Cc1c[nH]c2ccccc12)C(=O)N[C@@H](CCCNC(=N)N)C(=O)N[C@@H](Cc1ccccc1)C(N)=O | Candida albicans |  | CGMCC 2.209 | no added salts |  | MIC | 8 µM |
| COC(=O)C1=C(C)NC(C)=C(C(=O)OC(C)(C)CN(C)CCC(c2ccccc2)c2ccccc2)C1c1cccc([N+](=O)[O-])c1 (stereo not drawn) | Aspergillus fumigatus |  |  | 3.95 µM, 48 h, conidia, added: caspofungin 0.2 µg/mL | relative to: caspofungin alone | CFU relative | 0.655 and 0.845 |
| NC(=O)c1cnc(N[C@@H]2CCCC[C@@H]2N)nc1Nc1cccc(-n2nccn2)c1 | murine hepatitis virus | viral replication, nanoluciferase reporter | DBT | 1 µM, 10 h | relative to: DMSO vehicle | inhibition | 40% |
| C#Cc1ccc(O)c(C=NNC(=O)c2ccc(Br)cc2)c1 | Aspergillus fumigatus |  | 293 | unit not given, added: voriconazole | lower = more synergy | FICI | 2 |
| Cc1c(NC(=O)c2ccc(C(C)(C)C)cc2)cccc1-c1cn(C)c(=O)c(Nc2ccc(C(=O)N3CCOCC3)cc2)n1 | murine hepatitis virus | viral replication, nanoluciferase reporter | DBT | 1 µM, 10 h | relative to: DMSO vehicle | inhibition | 19% |
| CC[C@H](C)C[C@H](C)CCCCCCCCC(=O)N[C@H]1C[C@@H](O)[C@@H](NCCN)NC(=O)[C@@H]2[C@@H](O)CCN2C(=O)[C@H]([C@H](O)CCN)NC(=O)[C@H]([C@H](O)[C@@H](O)c2ccc(O)cc2)NC(=O)[C@@H]2C[C@@H](O)CN2C(=O)[C@H]([C@@H](C)O)NC1=O | Clavispora lusitaniae | broth dilution | ATCC 34449 | 48 h, 37 °C |  | MFC | 1 µg/mL |

Repeated from above:
| SMILES | organism | test | test system | conditions | how to read | quantity | result |
| --- | --- | --- | --- | --- | --- | --- | --- |
| CN1CCN(C(=O)C(C)(C)c2ccc(C(=O)Nc3cn4cc(-c5cc(C(C)(C)C)cc(C(C)(C)C)c5)ccc4n3)cc2)CC1 | murine hepatitis virus | viral replication, nanoluciferase reporter | DBT | 1 µM, 10 h | relative to: DMSO vehicle | inhibition | -1% |
